Experimental data from different studies.
Numbered parts are unrelated; each lists some results of a single study. Positions count from the first letter of the parent shown.

Block 1 — target: CREBL2, bZIP domain (human); technique: DHFR protein complementation; medium: yeast; reference: wild-type JUN-FOS pair; direction: higher = stronger binding
Setting: single substitutions, most at no-binding floor
Parent: JUN, bZIP domain (human); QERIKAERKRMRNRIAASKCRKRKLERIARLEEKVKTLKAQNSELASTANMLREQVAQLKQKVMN; partner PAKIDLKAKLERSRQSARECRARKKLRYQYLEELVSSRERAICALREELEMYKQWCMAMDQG
Substitution	binding fitness
T37F	-1.52 natural log
E33T	-1.21 natural log
A40Q	-1.3 natural log
A49G	-1.5 natural log
R53M	-1.53 natural log
T48F	-1.3 natural log
I28C	-1.17 natural log
V35T	-1.49 natural log
Q55A	-1.56 natural log
K39Y	-1.55 natural log
V56T	-1.56 natural log
L45N	-1.5 natural log
R30S	-1.44 natural log
Q55K	-1.49 natural log
R30I	-1.58 natural log
S43V	-1.5 natural log

Block 2 — technique: DHFR PCA, deep sequencing; medium: yeast; together with: (+)-ABA 710 µM; reference: wild-type fitted maximum; direction: higher = stronger binding
Target: ABI1, truncated, D143A, DHFR fusion (Arabidopsis thaliana)
Setting: methotrexate growth selection, single substitutions
Parent: PYL1, truncated, DHFR fusion (Arabidopsis thaliana); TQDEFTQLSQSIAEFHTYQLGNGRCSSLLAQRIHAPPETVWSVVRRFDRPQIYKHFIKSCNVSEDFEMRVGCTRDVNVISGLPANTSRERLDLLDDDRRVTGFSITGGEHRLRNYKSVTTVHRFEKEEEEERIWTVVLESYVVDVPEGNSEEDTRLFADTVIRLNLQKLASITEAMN
Substitution	relative binding score [%]
S63L	96.9
N77T	103
E127L	108
S63Q	104
V62N	73.1
Q7T	107
S87V	76
I105C	94.6
Q7W	109
S140N	7.39
D153E	106
Q167W	77
W41R	-3.69
Y115H	17.5
L8W	99.7
I133M	103
K54H	17
V70A	96.3
R155A	90
V100H	89.4
H16S	26.2
K58F	84.5
D92R	73
I172V	101

Block 3 — technique: universal PBM; molecule type: double-stranded DNA, one strand shown; medium: in vitro; tested at: not given; direction: higher = stronger binding
Target: Sal-like protein 4, full length isoform B (SALL4, Homo sapiens, UniProt Q9UJQ4-2, residues 1-616)
Setting: 8-mer, flanks averaged, mean of replicates
Construct (chain): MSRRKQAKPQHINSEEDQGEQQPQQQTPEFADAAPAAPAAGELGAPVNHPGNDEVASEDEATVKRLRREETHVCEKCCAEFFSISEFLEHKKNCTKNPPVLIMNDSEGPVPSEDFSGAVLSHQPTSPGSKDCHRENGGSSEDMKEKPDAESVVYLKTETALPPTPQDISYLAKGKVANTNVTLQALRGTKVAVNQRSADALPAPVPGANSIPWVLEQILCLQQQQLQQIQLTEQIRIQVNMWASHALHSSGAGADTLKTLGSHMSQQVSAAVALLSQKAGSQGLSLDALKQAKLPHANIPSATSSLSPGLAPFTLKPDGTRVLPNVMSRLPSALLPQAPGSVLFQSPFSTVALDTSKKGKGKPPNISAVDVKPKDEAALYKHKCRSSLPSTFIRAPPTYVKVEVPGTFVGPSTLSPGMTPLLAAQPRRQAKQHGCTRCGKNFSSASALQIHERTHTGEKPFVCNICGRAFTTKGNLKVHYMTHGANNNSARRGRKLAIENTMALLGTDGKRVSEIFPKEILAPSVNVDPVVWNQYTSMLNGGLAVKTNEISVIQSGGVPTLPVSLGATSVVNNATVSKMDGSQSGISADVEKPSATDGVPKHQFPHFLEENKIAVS
Oligonucleotide	E-score
ATACTGAG	0.104
CCCTCCTA	-0.207
CAGATCAC	-0.0646
AACAACTA	0.138
CAGAGGTC	-0.19
CTAACCCA	-0.112
CAAAGCTA	0.161
GTCAGTCA	-0.118
ACAGTACT	0.0521
AATTTATG	0.393
AGATGTTG	-0.104
CCGGCTTA	-0.209
ACGTCAAC	0.0313
CGACCCGA	-0.212
TCGTCCCA	-0.0754
GACCGAGC	-0.393
TGGCCCCA	-0.185
ATGTGAAT	0.196
CCCTATTA	0.288
ATACCCAC	0.107

Block 4 — technique: RNA Bind-n-Seq; molecule type: RNA; medium: in vitro; tested at: 365 nM; reference: no-protein control; direction: higher = stronger binding
Target: RNA binding protein fox-1 homolog 2, RRM domain, GST-SBP tag (RBFOX2, Homo sapiens, UniProt O43251-10, residues 100-194)
Setting: natural RNA segment, single round, ends assumed
Shared flanks, not repeated: GGGAGUUCUACAGUCCGACGAUC … UGGAAUUCUCGGGUGCCAA
Residues (chain): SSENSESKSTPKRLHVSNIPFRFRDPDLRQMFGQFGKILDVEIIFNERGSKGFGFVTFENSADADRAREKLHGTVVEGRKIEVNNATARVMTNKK
Oligonucleotide	RBNS enrichment (R)
AUGUGAUGGGGCUUCAAGACGUGAACUGAGACAAUUCACUCUGGCUGUUUGAACAGCAGCGUUUCAUAGGAAGAGAAAAAGAUCAAUCUUGUAUUUUCUGACCACAUAAA	0.289
CUCCUCCUUUGGCAUCCAUUUUUCCAAAGAAGAGUCGAGUCCUCUGAGGUCUGUGCUUGAAAGCCGUCCGAAGGCAUUCUUGUUAGCUUUGCUUUUCUCCCCAUAUCCCA	0.299
AAAGGUUACCCUCCCACCCCCGCUAUUUCUCAUGAUUCGUCAAUAUCUAGGUUAGGUAUUGAAAGAUCUUUCUAAGCAUCUGGUACUAUGAUCAGGACCAUAUCCUGCCC	0.417
AUUAGAGUCAUUUGAUCCAAGUUGGAGUCAGACACAGUAUUUGAGCUGCACGGCUUCUGGGUUCUCCCACCUUAUUUGAUCAUAUUCGAAAGAUUAUUUCCUGUGUUUGC	0.566
GGCUUGUGUACAGAUUGCUCUAUCCCAGAAGCAAGCCUUGGUUUGUUGAAGAGCUUUUCAUGUAUAGUAAACCAUGAUUCUGAGAGAAUCGAUUCUCCAAGGAGUCCUUC	0.254
GCCUCAUAAAGGGCCAGGUCUCCCCAGUACCAAGUCCUUUCCUCAUGAAGUUGUGUUGCCUCAGGCUGUUUAGGGACCAUUGCCUGUCUUGGUCACAUGAGUCUGUCUCC	0.899
GACCAGGCUCUAGCUCUGGGCCCUCCUUCAGCCCCCAUCAUGGGAAUAAAUUAAUUUUCUCAAUGUACAUAUUUGAGUUAUUAUAUGGAAAGAGUGCACGUUUGCAAGGA	0.806
UUGGAAUGGGUAAAGUACAAAUGUUAAUGCAACAUAGUACAGUUGUAUUUGUCCUUCAUAUUCAGGAUGUGAUAUUUACAAAAUGCAGAACAGUUUAAACUUGUUAAGUC	0.476

Block 5 — target: CCNE2, cyclin fold, Cln2 fusion (human); technique: yeast growth competition, sequencing; medium: yeast; setting: weak parent motif; reference: not given; direction: higher = stronger binding
Parent: CUX1 docking peptide (human); SRIRRELFIEEIQ; partner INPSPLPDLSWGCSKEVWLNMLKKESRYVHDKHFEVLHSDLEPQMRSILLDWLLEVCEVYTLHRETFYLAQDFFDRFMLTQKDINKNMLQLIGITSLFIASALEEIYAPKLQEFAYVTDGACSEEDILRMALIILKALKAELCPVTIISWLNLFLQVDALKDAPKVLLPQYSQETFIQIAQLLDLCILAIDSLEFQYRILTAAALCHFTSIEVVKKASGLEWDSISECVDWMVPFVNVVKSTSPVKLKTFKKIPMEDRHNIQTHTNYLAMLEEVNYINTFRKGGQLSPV
Substitution	normalised enrichment score
S1A	1.05
F8L	0.168
R5A L7A	-0.374
E6A	1.75
R5K	0.783
Q13A	-0.0479
R4A	0.134
E11A	0.887
R5A	0.269
E10A	0.603
